# Measurements pooled from the literature.
SMILES,test,test system,conditions,helicity [%]
CC[C@H](C)[C@H](NC(=O)[C@H](Cc1c[nH]c2ccccc12)NC(=O)[C@H](CCCCN)NC(=O)[C@@H](NC(=O)[C@H](CC(C)C)NC(=O)[C@H](CC(=O)O)NC(=O)CNC(=O)[C@@H](NC(=O)[C@@H](NC(=O)[C@H](CO)NC(=O)[C@@H](NC(=O)[C@@H](NC(=O)[C@H](CC(=O)O)NC(=O)[C@H](CCC(N)=O)NC(=O)[C@H](C)NC(=O)[C@H](CCSC)NC=O)[C@@H](C)CC)[C@@H](C)CC)[C@@H](C)O)[C@@H](C)CC)C(C)C)C(=O)N[C@H](C(=O)N[C@@H](CC(=O)O)C(=O)N[C@H](C(=O)N[C@H](C(=O)N[C@@H](CC(N)=O)C(=O)N[C@@H](CCCCN)C(=O)N[C@@H](Cc1ccccc1)C(=O)N[C@H](C(=O)N[C@@H](CCCCN)C(=O)N[C@@H](CCCCN)C(=O)O)[C@@H](C)O)C(C)C)[C@@H](C)O)[C@@H](C)CC,circular dichroism,POPC vesicles 5 mM,"20 µM, fully membrane bound",100
CC[C@H](C)[C@H](NC(=O)[C@H](Cc1ccccc1)NC(=O)[C@H](CC(=O)O)NC(=O)[C@@H]1CNC(=O)NCC[C@H](NC(=O)[C@H](CC(C)C)NC(=O)[C@H](CCCNC(=N)N)NC(=O)[C@H](CCSC)NC(=O)[C@H](C)N)C(=O)N[C@@H](CCCCN)C(=O)N[C@@H](Cc2ccccc2)C(=O)N[C@@H](Cc2ccccc2)C(=O)N1)C(=O)N[C@@H](CC(C)C)C(=O)N[C@@H](CCC(N)=O)C(=O)N[C@@H](CCCNC(=N)N)C(=O)N[C@@H](CCCCN)C(=O)N[C@@H](CCCCN)C(=O)O,circular dichroism,20% TFE in PBS,"200 µM, pH 7.4, 25 °C",8.2
CC(C)C[C@H](NC(=O)[C@H](CCC(=O)O)NC(=O)[C@H](C)NC(=O)[C@H](CCC(=O)O)NC(=O)[C@H](CCC(=O)O)NC(=O)[C@H](Cc1c[nH]cn1)NC(=O)[C@H](CCCNC(=N)N)NC(=O)[C@H](CCC(=O)O)NC(=O)[C@H](CC(N)=O)NC(=O)[C@H](CCCCN)NC(=O)[C@H](CC(C)C)NC(=O)[C@H](CCCNC(=N)N)NC(=O)[C@H](CCC(N)=O)NC(=O)[C@H](CC(C)C)NC(=O)[C@H](CCC(=O)O)NC(=O)[C@H](C)NC(=O)[C@H](CC(N)=O)NC(=O)[C@H](C)NC(=O)[C@@H](NC(=O)[C@H](CC(C)C)NC(=O)[C@H](CCCCN)NC(=O)[C@H](CCC(=O)O)NC(=O)[C@@H](NC(=O)[C@H](CO)NC(=O)CN)C(C)C)[C@@H](C)O)C(=O)N[C@@H](CCC(=O)O)C(=O)N[C@@H](CCCNC(=N)N)C(=O)N[C@@H](CC(C)C)C(=O)N[C@@H](CCCCN)C(=O)N[C@@H](CO)C(=O)N[C@@H](CCC(=O)O)C(=O)N[C@@H](Cc1ccc(O)cc1)C(=O)O,circular dichroism,sodium phosphate,"30 µM, pH 7.4, room temperature",18
CC[C@H](C)[C@H](NC(=O)[C@H](Cc1ccccc1)NC(=O)[C@@H]1CCn2cc(nn2)COCc2cn(nn2)CC[C@H](NC(=O)[C@H](Cc2ccc(O)cc2)NC(=O)[C@H](CO)NC(=O)[C@H](CO)NC(=O)[C@@H](NC(=O)[C@H](CC(=O)O)NC(=O)[C@H](CO)NC(=O)[C@@H](NC(=O)[C@H](Cc2ccccc2)NC(=O)[C@@H](NC(=O)CNC(=O)[C@H](CCC(=O)O)NC(=O)[C@H](C)NC(=O)[C@@H](N)Cc2c[nH]cn2)[C@@H](C)O)[C@@H](C)O)C(C)C)C(=O)N[C@@H](CCC(=O)O)C(=O)NCC(=O)N[C@@H](CCC(N)=O)C(=O)N[C@@H](C)C(=O)N[C@@H](C)C(=O)N[C@@H](CCCCN)C(=O)N1)C(=O)N[C@@H](C)C(=O)N[C@@H](Cc1c[nH]c2ccccc12)C(=O)N[C@@H](CC(C)C)C(=O)N[C@H](C(=O)N[C@@H](CCCCN)C(=O)NCC(=O)N[C@@H](CCCNC(=N)N)C(N)=O)C(C)C,circular dichroism,50% TFE,,104
CC[C@H](C)[C@H](NC(=O)[C@H](CCCCN)NC(=O)CNC(=O)[C@H](CC(C)C)NC(=O)[C@H](CC(C)C)NC(=O)[C@H](Cc1c[nH]cn1)NC(=O)[C@H](Cc1ccccc1)NC(=O)[C@@H](N)C(C)C)C(=O)N[C@H](C(=O)N[C@@H](Cc1c[nH]cn1)C(=O)N[C@@H](Cc1c[nH]cn1)C(=O)N[C@H](C(=O)NCC(=O)N[C@@H](CC(N)=O)C(=O)N[C@@H](Cc1ccccc1)C(=O)N[C@H](C(=O)N[C@@H](Cc1ccc(O)c(O)c1)C(=O)NCC(=O)N[C@@H](Cc1ccccc1)C(=O)N[C@@H](CO)C(=O)N[C@@H](Cc1c[nH]cn1)C(=O)N[C@H](C(=O)N[C@@H](Cc1ccccc1)C(N)=O)C(C)C)C(C)C)C(C)C)[C@@H](C)CC,CD spectroscopy,50% TFE,50 µM,36.3
CC(C)C[C@H](NC(=O)[C@H](CCC(=O)O)NC(=O)[C@H](C)NC(=O)[C@H](CCC(=O)O)NC(=O)[C@H](CCC(=O)O)NC(=O)[C@H](Cc1c[nH]cn1)NC(=O)[C@H](CCCNC(=N)N)NC(=O)[C@H](CCC(=O)O)NC(=O)[C@H](CC(N)=O)NC(=O)[C@H](CCCCN)NC(=O)[C@H](CC(C)C)NC(=O)[C@H](CCCNC(=N)N)NC(=O)[C@H](CCC(N)=O)NC(=O)[C@H](CC(C)C)NC(=O)[C@H](CCC(=O)O)NC(=O)[C@H](C)NC(=O)[C@H](C)NC(=O)[C@H](C)NC(=O)[C@@H](NC(=O)[C@H](CC(C)C)NC(=O)[C@H](CCCCN)NC(=O)[C@H](CCC(=O)O)NC(=O)[C@@H](NC(=O)[C@H](CO)NC(=O)CN)C(C)C)[C@@H](C)O)C(=O)N[C@@H](CCC(=O)O)C(=O)N[C@@H](CCCNC(=N)N)C(=O)N[C@@H](CC(C)C)C(=O)N[C@@H](CCCCN)C(=O)N[C@@H](CO)C(=O)N[C@@H](CCC(=O)O)C(=O)N[C@@H](Cc1ccc(O)cc1)C(=O)O,circular dichroism,sodium phosphate,"30 µM, pH 7.4, room temperature",29
CC[C@H](C)[C@H](NC(=O)[C@H](Cc1ccccc1)NC(=O)[C@H](CC(=O)O)NC(=O)[C@H](CCCNC(=N)N)NC(=O)[C@H](Cc1ccccc1)NC(=O)[C@H](Cc1ccccc1)NC(=O)[C@H](CCCCN)NC(=O)[C@H](CO)NC(=O)[C@H](CC(C)C)NC(=O)[C@H](CCCNC(=N)N)NC(=O)[C@H](CCSC)NC(=O)[C@H](C)N)C(=O)N[C@@H](CCN)C(=O)N[C@@H](CCC(N)=O)C(=O)N[C@@H](CCCNC(=N)N)C(=O)N[C@@H](CCCCN)C(=O)N[C@@H](CCCCN)C(=O)O,circular dichroism,20% TFE in PBS,"200 µM, pH 7.4, 25 °C",17.5
CC[C@H](C)[C@H](NC(=O)CNC(=O)[C@H](CC(=O)O)NC(=O)[C@H](CCCNC(=N)N)NC(=O)[C@@H](NC(=O)[C@H](CC(N)=O)NC(=O)[C@H](CCC(N)=O)NC(=O)CNC(=O)[C@@H](NC(=O)[C@H](CCCCN)NC(=O)[C@H](CCC(=O)O)NC(=O)[C@@H](NC(=O)[C@H](CCCCN)NC(=O)[C@H](CCCCN)NC(=O)[C@H](Cc1ccccc1)NC(=O)[C@H](CC(C)C)NC(=O)[C@H](CCCCN)NC(=O)[C@H](Cc1c[nH]c2ccccc12)NC(=O)[C@@H](N)CCCCN)[C@@H](C)CC)C(C)C)[C@@H](C)CC)C(=O)N[C@H](C(=O)N[C@@H](CCCCN)C(=O)N[C@@H](C)C(=O)NCC(=O)N1CCC[C@H]1C(=O)N[C@@H](C)C(=O)N[C@H](C(=O)N[C@@H](C)C(=O)N[C@H](C(=O)N[C@H](C(=O)NCC(=O)N[C@@H](CCC(N)=O)C(=O)N[C@@H](C)C(=O)N[C@H](C(=O)N[C@@H](CCC(N)=O)C(=O)N[C@H](C(=O)N[C@@H](C)C(=O)N[C@@H](CCCCN)C(N)=O)[C@@H](C)CC)[C@@H](C)O)C(C)C)C(C)C)C(C)C)[C@@H](C)CC,circular dichroism,phosphate buffer 10 mM,"1 to 5 µM, pH 7.5, approximate",~10
CC[C@H](C)[C@H](NC(=O)[C@H](Cc1ccccc1)NC(=O)[C@H](CC(=O)O)NC(=O)[C@@H]1CNC(=O)NCCC[C@H](NC(=O)[C@H](CC(C)C)NC(=O)[C@H](CCCNC(=N)N)NC(=O)[C@H](CCSC)NC(=O)[C@H](C)N)C(=O)N[C@@H](CCCCN)C(=O)N[C@@H](Cc2ccccc2)C(=O)N[C@@H](Cc2ccccc2)C(=O)N1)C(=O)N[C@@H](CC(C)C)C(=O)N[C@@H](CCC(N)=O)C(=O)N[C@@H](CCCNC(=N)N)C(=O)N[C@@H](CCCCN)C(=O)N[C@@H](CCCCN)C(=O)O,circular dichroism,20% TFE in PBS,"200 µM, pH 7.4, 25 °C",17
CC[C@H](C)[C@H](NC(=O)[C@H](Cc1c[nH]c2ccccc12)NC(=O)[C@H](CCCCN)NC(=O)[C@@H](NC(=O)[C@H](CC(C)C)NC(=O)[C@H](CCCCN)NC(=O)CNC(=O)[C@@H](NC(=O)[C@@H](NC(=O)[C@H](CO)NC(=O)[C@@H](NC(=O)[C@@H](NC(=O)[C@H](CCCCN)NC(=O)[C@H](CCC(N)=O)NC(=O)[C@H](C)NC(=O)[C@H](CCSC)NC=O)[C@@H](C)CC)[C@@H](C)CC)[C@@H](C)O)[C@@H](C)CC)C(C)C)C(=O)N[C@H](C(=O)N[C@@H](CCCCN)C(=O)N[C@H](C(=O)N[C@H](C(=O)N[C@@H](CC(N)=O)C(=O)N[C@@H](CCCCN)C(=O)N[C@@H](Cc1ccccc1)C(=O)N[C@H](C(=O)N[C@@H](CCCCN)C(=O)N[C@@H](CCCCN)C(=O)O)[C@@H](C)O)C(C)C)[C@@H](C)O)[C@@H](C)CC (racemic),circular dichroism,POPC vesicles 5 mM,"20 µM, fully membrane bound",52

# Repeated from above:
SMILES,test,test system,conditions,helicity [%]
CC[C@H](C)[C@H](NC(=O)[C@H](CCCCN)NC(=O)CNC(=O)[C@H](CC(C)C)NC(=O)[C@H](CC(C)C)NC(=O)[C@H](Cc1c[nH]cn1)NC(=O)[C@H](Cc1ccccc1)NC(=O)[C@@H](N)C(C)C)C(=O)N[C@H](C(=O)N[C@@H](Cc1c[nH]cn1)C(=O)N[C@@H](Cc1c[nH]cn1)C(=O)N[C@H](C(=O)NCC(=O)N[C@@H](CC(N)=O)C(=O)N[C@@H](Cc1ccccc1)C(=O)N[C@H](C(=O)N[C@@H](Cc1ccc(O)c(O)c1)C(=O)NCC(=O)N[C@@H](Cc1ccccc1)C(=O)N[C@@H](CO)C(=O)N[C@@H](Cc1c[nH]cn1)C(=O)N[C@H](C(=O)N[C@@H](Cc1ccccc1)C(N)=O)C(C)C)C(C)C)C(C)C)[C@@H](C)CC,CD spectroscopy,50% TFE,50 µM,36.3
